Published values pooled from the literature.
Parts stem from different laboratories: compare values within a part only.

Sample 1
Target: Sal-like protein 4, full length isoform A (SALL4, Homo sapiens, UniProt Q9UJQ4, residues 1-1053)
UniProt Q9UJQ4, sequence (whole entry, looked up): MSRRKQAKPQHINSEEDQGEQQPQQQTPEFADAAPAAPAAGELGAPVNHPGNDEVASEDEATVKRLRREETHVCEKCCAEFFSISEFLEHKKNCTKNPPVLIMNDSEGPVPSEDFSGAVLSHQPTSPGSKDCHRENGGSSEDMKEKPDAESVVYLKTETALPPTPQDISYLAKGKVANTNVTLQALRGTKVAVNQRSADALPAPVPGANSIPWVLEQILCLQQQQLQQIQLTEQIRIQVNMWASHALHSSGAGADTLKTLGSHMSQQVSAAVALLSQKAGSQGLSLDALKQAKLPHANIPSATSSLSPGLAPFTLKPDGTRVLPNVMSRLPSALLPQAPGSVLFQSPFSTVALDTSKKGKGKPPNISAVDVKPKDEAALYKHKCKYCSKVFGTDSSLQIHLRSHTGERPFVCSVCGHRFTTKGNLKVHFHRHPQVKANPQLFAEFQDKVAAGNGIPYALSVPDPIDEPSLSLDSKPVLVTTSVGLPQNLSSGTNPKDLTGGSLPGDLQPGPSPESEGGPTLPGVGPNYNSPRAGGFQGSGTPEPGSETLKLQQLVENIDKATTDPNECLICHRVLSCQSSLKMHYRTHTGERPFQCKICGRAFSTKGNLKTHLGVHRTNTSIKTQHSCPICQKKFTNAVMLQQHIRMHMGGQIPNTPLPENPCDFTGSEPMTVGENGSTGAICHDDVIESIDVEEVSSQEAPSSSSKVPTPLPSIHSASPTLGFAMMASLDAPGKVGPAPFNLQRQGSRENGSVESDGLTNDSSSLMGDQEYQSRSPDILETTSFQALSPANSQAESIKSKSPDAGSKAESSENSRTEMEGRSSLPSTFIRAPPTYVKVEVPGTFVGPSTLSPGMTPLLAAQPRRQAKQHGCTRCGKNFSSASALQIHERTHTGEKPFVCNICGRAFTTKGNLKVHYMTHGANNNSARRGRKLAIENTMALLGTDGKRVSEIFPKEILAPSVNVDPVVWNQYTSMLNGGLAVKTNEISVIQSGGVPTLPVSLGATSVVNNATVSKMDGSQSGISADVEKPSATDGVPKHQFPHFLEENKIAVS
Method: universal PBM
Form: double-stranded DNA, one strand shown
Medium: in vitro
Concentration: 600 nM
Setting: 8-mer, flanks averaged, mean of replicates
Direction: higher = stronger binding
Endpoint: E-score
AAAGCAAT: 0.215
GTATGAGA: 0.2
CGGTAAGC: -0.136
CGCCGTGC: -0.187
AGTGAGAC: -0.132

Sample 2
Target: Interferon regulatory factor 7, full length, phosphomimetic (IRF7, Homo sapiens, UniProt Q92985, residues 1-503, S471D/S472D/S475D/S476D/S477D/S483D/S484D/S487D)
Method: protein-binding microarray
Form: double-stranded DNA, one strand shown
Medium: in vitro
Concentration: 2200 nM top
Setting: 60-bp whole probe
With: salmon DNA 0.4 mg/ml
Relative to: random background probes
Direction: higher = stronger binding
Endpoint: fitted relative affinity
Residues (chain): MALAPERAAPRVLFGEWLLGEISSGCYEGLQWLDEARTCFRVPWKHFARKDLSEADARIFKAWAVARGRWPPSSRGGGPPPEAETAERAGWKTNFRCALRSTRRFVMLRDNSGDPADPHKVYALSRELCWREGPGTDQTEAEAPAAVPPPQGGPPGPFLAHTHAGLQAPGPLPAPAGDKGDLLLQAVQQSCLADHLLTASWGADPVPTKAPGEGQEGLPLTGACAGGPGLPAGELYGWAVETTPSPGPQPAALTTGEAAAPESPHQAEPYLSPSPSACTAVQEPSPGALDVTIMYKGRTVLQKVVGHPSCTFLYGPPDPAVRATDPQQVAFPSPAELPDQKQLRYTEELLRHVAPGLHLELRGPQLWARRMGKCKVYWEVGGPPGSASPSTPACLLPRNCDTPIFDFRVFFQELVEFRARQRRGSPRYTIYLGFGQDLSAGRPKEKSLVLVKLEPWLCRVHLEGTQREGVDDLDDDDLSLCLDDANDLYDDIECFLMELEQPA
GCCTAGCACTTAGATTTCAGTATCGTTTAGTGCTAGGTCTTGATTCGCTTGACGCTGCTG: 1.17 z-score
GCCTAGCACTAAGATTTCGGGACTGGATTAGTGCTAGTCTTGATTCGCTTGACGCTGCTG: 0.611 z-score
GCCTAGCACTCAACTCTCTACATGTGACTGTGCTAGGTCTTGATTCGCTTGACGCTGCTG: 1.03 z-score
GCCTAGCACTTCGGTTTCGGTCTCGGTTAGTGCTAGGTCTTGATTCGCTTGACGCTGCTG: 8.6 z-score

Sample 3
Target: Hepatocyte nuclear factor 3-beta, forkhead domain (FOXA2, Homo sapiens, UniProt Q9Y261, residues 142-269)
Method: protein-binding microarray
Form: double-stranded DNA, one strand shown
Medium: in vitro
Concentration: not given
Setting: k-mer, scored over probes, only values ≥0.25
Direction: higher = stronger binding
Endpoint: E-score
Target sequence (chain): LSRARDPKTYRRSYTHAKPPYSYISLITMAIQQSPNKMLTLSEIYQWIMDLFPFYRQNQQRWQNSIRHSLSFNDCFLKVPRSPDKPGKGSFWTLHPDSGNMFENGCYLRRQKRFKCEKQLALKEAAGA
TAAATATA: 0.393
CCTTGTAA: 0.275
TATTGTCA: 0.305

Further values, each from its own experiment
PhoQ, residues 284 288 289 292 302 303 ASSHFY
fold induction (PhoP, residues 12 14 15 18 19 DLLYY (Escherichia coli, UniProt P23836); Sort-seq, refers to: YFP reporter; E. coli; PhoQ-PhoP variant library, with: 10 µM Mg2+; relative to: high Mg2+ state, higher = stronger signaling): 2.19

Excerpt of the above (further values, each from its own experiment):
PhoQ, residues 284 288 289 292 302 303 ASSHFY
fold induction (PhoP, residues 12 14 15 18 19 DLLYY (Escherichia coli, UniProt P23836); Sort-seq, refers to: YFP reporter; E. coli; PhoQ-PhoP variant library, with: 10 µM Mg2+; relative to: high Mg2+ state, higher = stronger signaling): 2.19
